# Results pooled from the literature.
# Parts stem from different laboratories: compare values within a part only. Substitutions count along the parent as printed.

# Set 1 — technique: DHFR PCA, deep sequencing; matrix: yeast; with: (+)-ABA 58 µM; reference: wild-type fitted maximum; direction: higher = stronger binding
# Target: ABI1, truncated, D143A, DHFR fusion (Arabidopsis thaliana)
# Notes: methotrexate growth selection, single substitutions
# Parent: PYL1, truncated, DHFR fusion (Arabidopsis thaliana); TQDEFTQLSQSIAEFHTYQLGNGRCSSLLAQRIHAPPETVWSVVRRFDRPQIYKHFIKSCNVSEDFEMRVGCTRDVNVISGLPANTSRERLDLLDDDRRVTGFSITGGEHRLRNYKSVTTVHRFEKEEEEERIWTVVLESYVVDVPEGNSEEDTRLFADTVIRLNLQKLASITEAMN
Variant,relative binding score [%]
V100K,-2.94
K116D,-3.69
L29Y,28.1
V70K,63.6
S9M,77.7
S117P,12
S80W,20.2
Q10F,55.6
V142W,34.7
L164S,85
G148R,55
V145C,71.2
E125I,98.8

# Set 2 — technique: protein-binding microarray; form: double-stranded DNA, one strand shown; matrix: in vitro; tested at: 250 nM; notes: 60-bp whole probe; with: salmon DNA 0.4 mg/ml; reference: random background probes; direction: higher = stronger binding; constant ends, left off below: GCCTAGCAC … GTCTTGATTCGCTTGACGCTGCTG
# Target: Interferon regulatory factor 5, full length, phosphomimetic (IRF5, Homo sapiens, UniProt Q13568-2, residues 1-514, K96S/S451D/S453D/S456D/S462D)
Strand,log fluorescence [z-score]
GACGGCCTGCTTATCCTGACGTGCTAG,-0.625
TTAGGACTGGACTTTCGATTAGTGCTA,8.56
TTAGCACTGGGTCTCGGTTAGTGCTAG,0.161
GACCGTCTCCTACTGCTGACGTGCTAG,-0.267
TTAGAACTGAGTATCCATTAGTGCTAG,0.112
TTAGGTTTCGGTTTCGGGTAGTGCTAG,11.5
TTAGTTTTCAGTATCGATTAGTGCTAG,8.88
GTAGGTTTCGGTCTCGGTTAGTGCTAG,10.2
TCAAGTTTTCCTCTGTCACTGTGCTAG,0.618
CCCTTACCGCATATCGGGGTGTGCTAG,-0.021
GACGGATTCGGTTTCGGGACGTGCTAG,4.54
ATTATGTTTGCTTTGTTCTGGTGCTAG,0.486
TCATCTCTGTTTTTGCTACTGTGCTAG,1.21
TTAGAACTGGGGCCTGGATTAGTGCTA,-0.267
TTAGGTATCAGTTTCGGTTAGTGCTAG,10.3
GACGGACTGCTTCTCCTCACGTGCTAG,-0.543
TTAGGTATTGACTATCGGTTAGTGCTA,6.67
TTAGGTATCGGGACTGGGTTTGTGCTA,1.84

# Set 3 — technique: protein binding microarray; form: double-stranded DNA, one strand shown; matrix: in vitro; tested at: not given; reference: not given; direction: higher = stronger binding
# Target: Histone acetyltransferase KAT6A, winged helix 2, GST fusion (KAT6A, Homo sapiens, UniProt Q92794, residues 85-181)
# Notes: 8-mer, flanks averaged, mean of 2 arrays, mostly near background
# Target sequence (chain): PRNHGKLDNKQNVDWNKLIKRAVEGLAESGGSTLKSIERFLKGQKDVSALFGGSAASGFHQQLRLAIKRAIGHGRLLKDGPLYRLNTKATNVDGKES
Strand,E-score
CATGGTCC,-0.0605
CCTGAAAG,0.147
GCTGATAA,0.142
AGGAGACG,-0.223
CGACGAGA,-0.0351
ATACCGAC,-0.102
ACTGCTTG,-0.172
CATGCGAA,0.172
GATCATAC,-0.105
AAGAGACA,-0.0633
TCTAATAA,-0.0524
ACGCATAA,-0.0627
GTCTCAAC,-0.0749
TGTTCGAA,0.168
GGGACAGA,-0.0854
CGAGTACG,-0.0512
CCGTCTCG,0.193
AGTGATTA,-0.0987
CTGCGCCC,-0.0307
CGTTTCAA,-0.0151
ACTTAATG,0.0354
GCTGCAGA,0.131
TATGTAGA,-0.182

# Set 4 — technique: RNA Bind-n-Seq; form: RNA; matrix: in vitro; tested at: 365 nM; reference: no-protein control; direction: higher = stronger binding
# Target: RNA binding protein fox-1 homolog 2, RRM domain, GST-SBP tag (RBFOX2, Homo sapiens, UniProt O43251-10, residues 100-194)
# Notes: natural RNA segment, single round, ends assumed
# Construct (chain): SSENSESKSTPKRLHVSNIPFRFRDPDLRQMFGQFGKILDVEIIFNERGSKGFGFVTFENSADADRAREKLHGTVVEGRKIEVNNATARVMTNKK
Strand,RBNS enrichment (R)
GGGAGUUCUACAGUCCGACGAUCGAAUUGUAACAUAGCAUGACAAAUUUUGUGUUGACUUGAAAGGAAUCACACCAUUAUUCCUUAGAAGUAAUUACAUGUGUUCUAACACAUUUGAGACAGGGUUGGACUCCUGGAAUUCUCGGGUGCCAA,11.5
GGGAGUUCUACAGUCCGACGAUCAGUAAGGGAAGAGGUCCUCUGGCCCCCUGAAGAUGAGAAUCACCCCUCUCAGUGCACCUGGGGAUCCCCCUAAACUGUGAAUUCUGCCCUGGACAGGGCUUUGCCCUUGGUGGAAUUCUCGGGUGCCAA,0.272
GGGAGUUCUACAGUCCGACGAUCUGGUUUUUGGGAUAGAACUUGGGCCAGGGCUAGGAACACAGGCUCCACGGUGACAUGUCAUUUGAUUGUAAAUUAAGUGUUCUGAUUAGUAAGAACUAAGCAGGGGGCCAUGGAAUUCUCGGGUGCCAA,0.343
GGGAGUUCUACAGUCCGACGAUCGGAAACGACGCUGAGAGGAUGACGACAACGUGCAACAGCAGAAAGAUGCUUGCAAGCAGAGUCAGGGUCACCAGUGAAUGCCACAAAAGUUCUCUUUCCCACUGUUUAAUUGGAAUUCUCGGGUGCCAA,0.617
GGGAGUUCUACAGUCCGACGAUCAGGAGUUUCUAUAGCGAGACAUAGAAUAGUAUUCUGAUCAGUUGCCAAAGAAUCUAGGAAAUUAGUUGUAUUUUGUGCAAGCUAAUUUAAAAACAUGAUGGGCUGUUUUAUGGAAUUCUCGGGUGCCAA,0.641
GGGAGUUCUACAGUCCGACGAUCUAUAUUUAAUUUAUAAAUUUCGGACUGAUAAAAAAAUAGAGUUUUGGAAAACUAUAAAAAAUGCUUUGUUAAUGUGUGUAUUCCUAUGUAAAACACAUGGCUUCUUCUGUUGGAAUUCUCGGGUGCCAA,0.812
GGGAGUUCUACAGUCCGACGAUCUCCAACCUGUCAGGCUGGCGCCUUAGAACUGAGCCUUAGGUUGGGCAGCGGGUCUCUGUCCUGGUAUUGAAUUUGCACAAGUGUGUGGUGACAUAUGUGCUUGUGGGCCAUGGAAUUCUCGGGUGCCAA,0.898
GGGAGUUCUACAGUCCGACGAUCUUUGCCCGAUGGAUUUUGAAAACAUUUAAAAAAAAAAAAAAAAAGCCUUAUCUUGUGGCCUUCCAAAAUAGGUUGUUUGCCUGUGUGGAGACAACAGUGCGGGAGUCCUGUGGAAUUCUCGGGUGCCAA,0.638
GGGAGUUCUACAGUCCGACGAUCGUGUGAUAAACCAUAUGUAGUUUAGUCUUUCUGUGGAGAGGCAGUGGUUGGGGCAUUUUUAAAUGGCUGGCUACACUUGUUUUCCCUCAUGAUAAUUUGUCAUAACUCAGUGGAAUUCUCGGGUGCCAA,0.743
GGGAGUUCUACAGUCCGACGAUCUGACACCCACAUCCACUUUAGCCAUGUGUGACUCCCUAACAUUCCAAUCCUCUACCAUCCUGCAGCUGAAAUGGGAACACUGGCUGCCUCUCUAAACCUAAACUCUUGGAUGGAAUUCUCGGGUGCCAA,0.835
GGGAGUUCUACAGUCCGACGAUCGGUGACACACUCCGUGGGGGAGGCUCUUCUCCCCUUCUUUCUCUAGUCUGGGUGGUGAACGGGCUGACACUGCUGUCACUGGUUCUUAGGACCUAAGGUGGUCCUCAUAAUGGAAUUCUCGGGUGCCAA,0.457
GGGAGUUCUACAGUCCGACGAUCAUAAAUGUAUAUCUUGAAAAAGAUAUAGGUCACAGGUGGCUUAACUCUCCCUAGUUCUCAGUAGAAUAGUUCAAACAAUAUUACUUAUGUUAAUUAGAAGGGGCUUUUGUUGGAAUUCUCGGGUGCCAA,0.431

# Set 5 — technique: universal PBM; form: double-stranded DNA, one strand shown; matrix: in vitro; tested at: 600 nM; direction: higher = stronger binding
# Target: Sal-like protein 4, full length isoform A (SALL4, Homo sapiens, UniProt Q9UJQ4, residues 1-1053)
# Chain of UniProt Q9UJQ4 (whole entry, looked up): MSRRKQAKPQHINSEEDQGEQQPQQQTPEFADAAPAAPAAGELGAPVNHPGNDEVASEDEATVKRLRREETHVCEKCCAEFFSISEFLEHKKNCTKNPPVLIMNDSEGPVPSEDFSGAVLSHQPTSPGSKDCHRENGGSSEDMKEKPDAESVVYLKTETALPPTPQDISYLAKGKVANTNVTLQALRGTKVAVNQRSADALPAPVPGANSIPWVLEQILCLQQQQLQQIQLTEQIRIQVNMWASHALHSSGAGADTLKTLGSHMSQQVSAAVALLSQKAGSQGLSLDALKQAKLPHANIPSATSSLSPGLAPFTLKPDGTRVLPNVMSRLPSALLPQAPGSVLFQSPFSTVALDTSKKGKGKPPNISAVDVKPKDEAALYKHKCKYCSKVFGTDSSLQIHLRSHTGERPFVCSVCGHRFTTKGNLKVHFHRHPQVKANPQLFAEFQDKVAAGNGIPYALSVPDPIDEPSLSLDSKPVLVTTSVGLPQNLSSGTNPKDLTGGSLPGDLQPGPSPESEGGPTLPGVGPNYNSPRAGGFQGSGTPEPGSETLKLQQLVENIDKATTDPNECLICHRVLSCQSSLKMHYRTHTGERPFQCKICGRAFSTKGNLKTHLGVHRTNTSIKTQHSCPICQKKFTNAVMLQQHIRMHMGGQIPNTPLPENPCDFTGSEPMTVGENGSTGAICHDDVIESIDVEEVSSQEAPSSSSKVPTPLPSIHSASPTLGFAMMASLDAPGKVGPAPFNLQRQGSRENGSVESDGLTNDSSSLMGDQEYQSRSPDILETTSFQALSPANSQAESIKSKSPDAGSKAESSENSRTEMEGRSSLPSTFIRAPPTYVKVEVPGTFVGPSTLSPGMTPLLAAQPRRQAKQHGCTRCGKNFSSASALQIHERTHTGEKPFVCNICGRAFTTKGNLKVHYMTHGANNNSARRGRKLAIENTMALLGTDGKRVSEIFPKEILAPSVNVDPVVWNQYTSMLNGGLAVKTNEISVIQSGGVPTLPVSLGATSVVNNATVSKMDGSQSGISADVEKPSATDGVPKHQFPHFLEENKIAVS
# Notes: 8-mer, flanks averaged, mean of replicates
Strand,E-score
CGATGTTA,0.095
AACGGGGC,-0.213
CTGCGCCA,-0.199
CAATGCAG,-0.0171
CGGAAGAA,0.0332
TCAGAGAA,0.123
AGGCGGAA,0.0987
GCATACGA,0.0351
GACCCGCA,-0.243
AAGCAGCC,-0.2
GCGTCACC,-0.363
CAATGCGG,-0.234
CGACTGCC,-0.337
CTTAGATA,0.217
CAGTAGAC,0.0558
CCGCCGGC,-0.216
GACGAAGA,0.00507
ACAGTGGG,-0.263
AGACGCCT,-0.267
AGGAGGCA,-0.288
AGTGAATA,0.175
CGGTCCCC,-0.399
GGGACAAA,0.0177
GCCCTTCC,-0.301
AACTTGTG,0.124

# Set 6 — technique: aptamer microarray, sandwich; form: DNA with 2'F-ANA; matrix: in vitro; tested at: 200 nM; with: Cy3 exosite-II aptamer, 400 nM; direction: higher = stronger binding; strand: GGTTGGTGTGGTTGG
# Target: Prothrombin, mature alpha-thrombin (F2, Homo sapiens, UniProt P00734)
# Notes: whole 15-mer aptamer, many near background
Modification,mean fluorescence intensity
2'F-ANA at 5 6 7 8 10 12 15,50.3 a.u.
2'F-ANA at 2 4 6 7 8 10 11 13 14,64.2 a.u.
2'F-ANA at 2 4 6 8 10 11,70.8 a.u.
2'F-ANA at 1 2 3 4 6 9 11 13 14,54.7 a.u.
2'F-ANA at 4 5 6 8 9 11 12 14 15,52 a.u.
2'F-ANA at 2 4 7 8 11 13 14,114 a.u.
2'F-ANA at 1 2 5 7 9 11 12 14,46.7 a.u.
2'F-ANA at 2 3 4 5 8 9 10 11 12 13,53.7 a.u.
2'F-ANA at 3 4 5 7 11 13 14 15,51.3 a.u.
2'F-ANA at 2 6 7 8 9 10 11 14 15,84 a.u.
2'F-ANA at 1 5 6 7 8 10 13 15,45.4 a.u.
2'F-ANA at 3 4 5 8 11 13 15,66.8 a.u.
2'F-ANA at 1 4 6 9 10 12 13,51.2 a.u.
2'F-ANA at 2 8 9 11 12 13,550 a.u.
2'F-ANA at 1 2 4 5 7 8 13,52.6 a.u.
2'F-ANA at 3 4 5 6 7 8 9 13,121 a.u.
2'F-ANA at 4 5 9 10 12 14 15,41.7 a.u.
2'F-ANA at 2 4 6 8 10 13,64.3 a.u.
2'F-ANA at 1 2 4 5 6 10 11 12 15,53.1 a.u.
2'F-ANA at 4 6 7 8 9 10 14 15,62.5 a.u.
2'F-ANA at 1 2 6 8 9 10 11 13 15,53.6 a.u.
2'F-ANA at 2 4 5 8 9 10 15,73.3 a.u.

# A few entries again (set 2):
Strand,log fluorescence [z-score]
TTAGGTTTCGGTTTCGGGTAGTGCTAG,11.5
TTAGTTTTCAGTATCGATTAGTGCTAG,8.88
GTAGGTTTCGGTCTCGGTTAGTGCTAG,10.2
TCAAGTTTTCCTCTGTCACTGTGCTAG,0.618
CCCTTACCGCATATCGGGGTGTGCTAG,-0.021
GACGGATTCGGTTTCGGGACGTGCTAG,4.54
